Assay results collected from several papers.
Lines come from different studies, so protocols differ. ± gives the spread as reported.
Organism: Plasmodium yoelii

SMILES | test | test system | conditions | how to read | quantity | value
O=c1c2c([nH]c3cc(Oc4ccc(OC(F)(F)F)cc4)ccc13)CCCC2 | antimalarial activity | CF1 mouse | oral, once daily for 4 days |  | ED50 | 2.9 mg/kg
Cc1[nH]c(/C=C2\N=C(c3ccc[nH]3)C3=C2OCCO3)cc1Cc1ccc(OC(F)(F)F)cc1.Cl |  | CF1 mice | oral, 10 mg/kg daily for 4 days, day 5 | reference: vehicle | parasitaemia reduction | 64.7%
O=c1c2ccc(OCc3ccc(OC(F)(F)F)cc3)cc2[nH]c2cc(Cl)cc(F)c12 | antimalarial activity | CF1 mouse | oral, once daily for 4 days |  | ED50 | 0.16 mg/kg
COC1=CC(c2ccc[nH]2)=N/C1=C\c1[nH]c(-c2ccccc2)cc1-c1ccccc1 |  | CF1 mice | oral, 10 mg/kg daily for 4 days, day 5 | reference: vehicle | parasitaemia reduction | 100%
Cc1nc2c(c(O)c1Cl)-c1ccc(Oc3cccc(C(F)(F)F)c3)cc1C2=O |  | 17XL | 384-well |  | IC50 | 116 ± 54 nM
CC(C)(C)OC(=O)N1CCC(Oc2ccc3c(=O)c4c(F)cc(Cl)cc4[nH]c3c2)C1 (centres unmarked) | antimalarial activity | CF1 mouse | oral, once daily for 4 days |  | ED50 | 0.34 mg/kg
FC(F)(F)Oc1ccc(COC2=CC(c3ccc[nH]3)=N/C2=C\NC23CC4CC(CC(C4)C2)C3)cc1 |  | CF1 mice | oral, 25 mg/kg daily for 4 days, day 5 |  | parasitemia reduction | > 80%
CCCCc1ccc(-c2ccc(-c3c(C)[nH]c(C)c(Br)c3=O)cn2)cc1 |  | 17XL | 384-well |  | IC50 | 94 ± 8 nM
CCC1=C(CC)/C(=C/c2[nH]c(Cc3ccc(Cl)cc3)cc2Cc2ccc(Cl)cc2)N=C1c1ccc[nH]1 |  | CF1 mice | oral, 10 mg/kg daily for 4 days, day 5 | reference: vehicle | parasitaemia reduction | 100%
CC(C)CC1c2[nH]c3ccccc3c(=O)c2CN1C(=O)OC(C)(C)C (centres unmarked) |  | 17XL | 384-well |  | IC50 | 638 ± 10 nM
Cc1[nH]c(/C=C2\N=C(c3ccc[nH]3)C=C2OC(C)C)cc1Cc1ccc(Cl)cc1.Cl | parasitaemia | mouse | 4-day treatment, parasitaemia day 5 |  | ED50 | 1.29 mg/kg/day
CCCOC1=CC(c2ccc[nH]2)=N/C1=C\NC12CC3CC(CC(C3)C1)C2 |  | CF1 mice | oral, 25 mg/kg daily for 4 days, day 5 |  | parasitemia reduction | > 80%
O=c1c2ccc(OCc3cccc(OC(F)(F)F)c3)cc2[nH]c2cc(Cl)cc(F)c12 | antimalarial activity | CF1 mouse | oral, once daily for 4 days |  | ED50 | 0.1 mg/kg
COC1=CC(c2ccc[nH]2)=N/C1=C\c1[nH]c(Cc2ccc(OC(F)(F)F)cc2)cc1Cc1ccc(OC(F)(F)F)cc1 |  | CF1 mouse | oral, 80 mg/kg single dose, day 5 |  | parasitaemia reduction | 100%
Cc1[nH]c(C)c(-c2ccc(OCc3ccc(OC(F)(F)F)cc3)nc2)c(=O)c1Cl |  | 17XL | 384-well |  | IC50 | 117 ± 22 nM
Cc1[nH]c(/C=C2\N=C(c3ccc[nH]3)C3=C2OCCO3)cc1Cc1ccc(Cl)cc1.Cl |  | CF1 mice | oral, 10 mg/kg daily for 4 days, day 5 | reference: vehicle | parasitaemia reduction | 63.9%
Cc1[nH]c(C)c(-c2ccc(Oc3ccc(F)cc3)cc2)c(=O)c1Cl |  | 17XL | 384-well |  | IC50 | 38 ± 23 nM
O=c1c2c([nH]c3cc(Oc4ccc(OC(F)(F)F)cc4)c(F)cc13)CCCC2 | antimalarial activity | CF1 mouse | oral, once daily for 4 days |  | ED50 | 1.8 mg/kg
Cc1[nH]c(C)c(-c2ccc(C(=O)c3ccc(Cl)cc3)cc2)c(=O)c1Br |  | 17XL | 384-well |  | IC50 | 290 ± 66 nM
O=c1c2ccc(Oc3ccc(OC(F)(F)F)cc3)cc2[nH]c2cc(F)c(Cl)cc12 | antimalarial activity | CF1 mouse | oral, once daily for 4 days |  | ED50 | 0.1 mg/kg

Excerpt of the above:
SMILES | test | test system | conditions | how to read | quantity | value
O=c1c2c([nH]c3cc(Oc4ccc(OC(F)(F)F)cc4)ccc13)CCCC2 | antimalarial activity | CF1 mouse | oral, once daily for 4 days |  | ED50 | 2.9 mg/kg
Cc1[nH]c(/C=C2\N=C(c3ccc[nH]3)C3=C2OCCO3)cc1Cc1ccc(OC(F)(F)F)cc1.Cl |  | CF1 mice | oral, 10 mg/kg daily for 4 days, day 5 | reference: vehicle | parasitaemia reduction | 64.7%
O=c1c2ccc(OCc3ccc(OC(F)(F)F)cc3)cc2[nH]c2cc(Cl)cc(F)c12 | antimalarial activity | CF1 mouse | oral, once daily for 4 days |  | ED50 | 0.16 mg/kg
